Published values of several laboratories.
Protocols differ between the studies behind these lines. pIC50: −log10 of the molar value. ≈ marks a conversion by molar mass, not a printed value.

COc1ccc(C2=[N+]([O-])c3ccccc3N3CCN=C23)cc1 — MIC (Eggerthella lenta; microbial growth; ATCC43055): ≤ 0.06 µg/mL
CC[C@H](C)[C@H](NC(=O)[C@H](CO)NC(=O)[C@H](CO)NC(=O)[C@H](Cc1ccccc1)NC(=O)CN)C(=O)N[C@@H](Cc1ccccc1)C(=O)N[C@@H](CCCNC(=N)N)C(N)=O — MBC (Escherichia coli; ATCC 8739; added: 0.5 mM KCl): > 128 µM
CC[C@@H](C)[C@@H](NC(=O)[C@@H](C)NC(=O)[C@@H](CCCCN)NC(=O)[C@@H](CC(C)C)NC(=O)[C@@H](C)NC(=O)[C@H](NC(=O)[C@@H](Cc1c[nH]cn1)NC(=O)[C@@H](CC(C)C)NC(=O)[C@H](NC(=O)[C@H](NC(=O)[C@@H](CCCCN)NC(=O)[C@@H](CCCCN)NC(=O)[C@@H](C)NC(=O)[C@@H](CO)NC(=O)[C@@H](CCCCN)NC(=O)[C@@H](Cc1ccccc1)NC(=O)[C@H](NC(=O)[C@@H](CCCCN)NC(=O)[C@@H](CC(C)C)NC(=O)[C@@H](Cc1ccccc1)NC(=O)[C@@H](CO)NC(=O)[C@@H](CCCCN)NC(=O)[C@@H](Cc1c[nH]c2ccccc12)NC(=O)[C@@H](CCCCN)NC(C)=O)[C@H](C)O)[C@H](C)O)C(C)C)[C@H](C)O)C(=O)N[C@H](CO)C(=O)N[C@H](CO)C(N)=O — MIC50 (Rhizopus oryzae; AZN 8892; 48 h, 30 °C): 18.8 µg/mL (≈ 6.29 µM)
COC(=O)c1[nH]c(=O)c2cccnc2c1O — inhibition (Human betaherpesvirus 5; viral replication, inhibitor; HFF; 10 µM): 11%
C[C@@](O)(C(F)F)[C@H](NC(=O)c1ccc(C#CC#CC2CC2)cc1)C(=O)NO — MIC50 (Achromobacter xylosoxidans; agar dilution; clinical isolates): 0.125 µg/mL (≈ 0.332 µM)
CN[C@@H]1[C@H](O)[C@H](NC)[C@H]2O[C@]3(O)[C@H](O[C@@H]2[C@H]1O)O[C@H](C)C[C@@]3(O)CNCc1ccccc1 — inhibition zone diameter (Neisseria gonorrhoeae; ATCC 49226; 40 µg per disc): 15.5 to 16 mm
CC[C@H](C)[C@H](NC(=O)[C@H](CCCCN)NC(=O)[C@H](CCCCN)NC(=O)[C@H](CC(C)C)NC(=O)[C@H](CCCCN)NC(=O)[C@H](CCC(=O)O)NC(=O)[C@H](CCCCN)NC(=O)[C@@H](NC(=O)[C@H](CCCCN)NC(=O)[C@H](CC(N)=O)NC(=O)[C@H](CCCNC(=N)N)NC(=O)[C@H](Cc1ccccc1)NC(=O)[C@H](CCCCN)NC(=O)[C@H](CCCNC(=N)N)NC(=O)[C@H](CC(C)C)NC(=O)[C@H](CCCNC(=N)N)NC(=O)[C@H](CCCCN)NC(=O)[C@H](CCCNC(=N)N)NC(=O)[C@H](CC(C)C)NC(=O)CN)[C@@H](C)CC)C(=O)NCC(=O)N[C@@H](CCC(N)=O)C(=O)N[C@@H](CCCCN)C(=O)N[C@H](C(=O)N[C@@H](CCC(N)=O)C(=O)NCC(=O)N[C@@H](Cc1ccccc1)C(=O)N[C@H](C(=O)N1CCC[C@H]1C(=O)N[C@@H](CCCCN)C(=O)N[C@@H](CC(C)C)C(=O)N[C@@H](C)C(=O)N1CCC[C@H]1C(=O)N[C@@H](CCCNC(=N)N)C(=O)N[C@H](C(=O)N[C@@H](CC(=O)O)C(=O)N[C@@H](Cc1ccc(O)cc1)C(=O)O)[C@@H](C)O)C(C)C)[C@@H](C)CC — lethal concentration (Micrococcus luteus; inhibition zone; CGMCC 1.029): 0.94 µM
CN(C)CCNC(=O)/C=C/[C@H](Cc1ccccc1)Nc1ccnc2cc(Cl)ccc12 — survival rate (Plasmodium berghei; NAT atovaquone-resistant, ICR mice; intravenous, 20 mg/kg once daily, 15 days post-infection): 100%
CC[C@H](C)[C@H](NC(=O)[C@H](CCCCN)NC(=O)[C@H](CCCCN)NC(=O)[C@H](CC(C)C)NC(=O)[C@H](CCCCN)NC(=O)[C@H](CCC(=O)O)NC(=O)[C@H](CCCCN)NC(=O)[C@@H](NC(=O)[C@H](CCCCN)NC(=O)[C@H](CC(N)=O)NC(=O)[C@H](CCCNC(=N)N)NC(=O)[C@H](Cc1ccccc1)NC(=O)[C@H](CCCCN)NC(=O)[C@H](CCCNC(=N)N)NC(=O)[C@H](CC(C)C)NC(=O)[C@H](CCCNC(=N)N)NC(=O)[C@H](CCCCN)NC(=O)[C@H](CCCNC(=N)N)NC(=O)[C@H](CC(C)C)NC(=O)[C@@H](N)CC(C)C)[C@@H](C)CC)C(=O)NCC(=O)N[C@@H](CCC(N)=O)C(=O)N[C@@H](CCCCN)C(=O)N[C@H](C(=O)N[C@@H](CCC(N)=O)C(=O)NCC(=O)N[C@@H](Cc1ccccc1)C(=O)N[C@H](C(=O)N1CCC[C@H]1C(=O)N[C@@H](CCCCN)C(=O)N[C@@H](CC(C)C)C(=O)N[C@H](C(=O)N1CCC[C@H]1C(=O)N[C@@H](CCCNC(=N)N)C(=O)N[C@H](C(=O)N[C@@H](CCC(=O)O)C(=O)N[C@@H](CO)C(=O)O)[C@@H](C)O)C(C)C)C(C)C)[C@@H](C)CC — lethal concentration (Micrococcus luteus; inhibition zone; CGMCC 1.029): 1.18 µM
COc1ccc(N2C(=O)C=CC2=O)cc1 — mRNA level (Candida albicans; qRT-PCR, item: EFG1; 1 µg/mL, 12 h; relative to: untreated): 0.29 fold
CC[C@H](C)[C@H](NC(=O)[C@H](CCCCN)NC(=O)[C@H](CCCCN)NC(=O)[C@H](CC(C)C)NC(=O)[C@H](CCCCN)NC(=O)[C@H](CCC(=O)O)NC(=O)[C@H](CCCCN)NC(=O)[C@@H](NC(=O)[C@H](CCCCN)NC(=O)[C@H](CC(N)=O)NC(=O)[C@H](CCCNC(=N)N)NC(=O)[C@H](Cc1ccccc1)NC(=O)[C@H](CCCCN)NC(=O)[C@H](CCCNC(=N)N)NC(=O)[C@H](CC(C)C)NC(=O)[C@H](CCCNC(=N)N)NC(=O)[C@H](CCCCN)NC(=O)[C@H](CCCNC(=N)N)NC(=O)[C@@H](N)CC(C)C)[C@@H](C)CC)C(=O)NCC(=O)N[C@@H](CCC(N)=O)C(=O)N[C@@H](CCCCN)C(=O)N[C@H](C(=O)N[C@@H](CCC(N)=O)C(=O)NCC(=O)N[C@@H](Cc1ccccc1)C(=O)N[C@H](C(=O)N1CCC[C@H]1C(=O)N[C@@H](CCCCN)C(=O)N[C@@H](CC(C)C)C(=O)O)C(C)C)[C@@H](C)CC — lethal concentration (Bacillus subtilis; inhibition zone; CGMCC 1.243): 1.45 µM
CN[C@@H]1[C@H](O)[C@H](NC)[C@H]2O[C@]3(O)[C@H](O[C@@H]2[C@H]1O)O[C@H](C)C[C@]3(O)CNCc1ccc(F)cc1 — inhibition zone diameter (Haemophilus influenzae; ATCC 49247; 40 µg per disc): 0 mm
CCCCCCOP(=O)(O)Oc1c2c(c(OP(=O)(O)OCCCCCC)c3c1C1CC3c3cc4c(cc31)C1CC4c3ccccc31)C1CC2c2cc3c(cc21)C1CC3c2ccccc21 — pIC50 (measles virus; viral infection, flow cytometry; A549, vaccine strain GFP; 2 days, virus pre-incubated 30 min 37 °C): 5.34
O.O=[N+]([O-])[O-].O=c1cc[nH]c(=S)[nH]1.[Ag+].c1ccc(P(c2ccccc2)c2ccccc2)cc1.c1ccc(P(c2ccccc2)c2ccccc2)cc1 — inhibition zone diameter (Candida albicans; MTCC 227, DMSO; 0.1 mL of 50 mg/mL in 8 mm well, 18 to 24 h): 20 mm
CC[C@H](C)[C@H](NC(=O)[C@H](Cc1c[nH]c2ccccc12)NC(=O)[C@H](CCCNC(=N)N)NC(=O)[C@H](CCC(N)=O)NC(=O)[C@@H](NC(=O)[C@H](Cc1c[nH]c2ccccc12)NC(=O)[C@H](CCCNC(=N)N)NC(=O)[C@H](CCCNC(=N)N)NC(=O)[C@H](CCSC)NC(=O)[C@H](C)NC(=O)[C@H](CCCCN)NC(=O)[C@@H]1CCCN1C(=O)[C@H](C)N)C(C)C)C(=O)N[C@@H](CCCNC(=N)N)C(=O)N[C@@H](CCCNC(=N)N)C(=O)N[C@@H](Cc1c[nH]c2ccccc12)C(=O)N[C@@H](CCCNC(=N)N)C(=O)N1CCC[C@H]1C(=O)N[C@@H](CCCCN)C(=O)N[C@H](C(=O)N[C@@H](Cc1ccccc1)C(=O)N[C@@H](CCC(N)=O)C(=O)N[C@H](C(=O)N[C@H](C(=O)NCC(=O)N[C@@H](CO)C(=O)N[C@@H](CO)C(=O)N[C@@H](C)C(N)=O)[C@@H](C)O)C(C)C)C(C)C — minimum fungicidal concentration (Malassezia furfur; DTO 383-D9; 48 h): 0.3 µM (≈ 1.04 µg/mL)
